# Published values from different studies.
# Lines come from different studies, so protocols differ. ± marks the error that the study gave.
# Technique: steady-state kinetics
# B1: sbnA (Staphylococcus aureus, UniProt A6QDA0); chain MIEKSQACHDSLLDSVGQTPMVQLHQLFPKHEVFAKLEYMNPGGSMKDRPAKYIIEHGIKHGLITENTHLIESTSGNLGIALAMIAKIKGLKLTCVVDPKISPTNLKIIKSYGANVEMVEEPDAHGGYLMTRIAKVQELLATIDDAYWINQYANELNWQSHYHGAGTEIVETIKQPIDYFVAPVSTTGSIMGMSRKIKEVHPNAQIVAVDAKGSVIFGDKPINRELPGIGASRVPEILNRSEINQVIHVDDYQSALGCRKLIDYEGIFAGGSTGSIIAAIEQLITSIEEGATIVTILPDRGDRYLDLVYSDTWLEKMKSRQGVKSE
# B2: enzyme E217L/L163H/N249W (Thermobifida fusca, UniProt Q47RK4); chain MTDVYILDAVRTPFGRYGGALSGIRPDDLAAHVLRALAERSPGLDPAAVDDVFFGDANGAGEDNRNVARMAALLAGWPTSVPGVTLNRLCGSGMESVIAANRAIAVGDASLAVAGGVESMSRAPWVLPKPAQGFPTGHETLYSTTLGWRMVNPAMPEQWTVSHGESTEQVAATYGISRAEQDAFALRSHERAARAWAEGVFDAEITQIPGAELERDLSIRETSAEKLAALKPAFRPDGTITAGNASPLWDGAAALLIGDAAAAERVGREPLARIVSRGVAAVDPDVFGIGPVQAAEIALRRAGIGWDDLSVVELNEAFAAQSLACLKLWPDLDPEIVNPNGGAIAIGHPLGASGARIVGTLAHELHRRGGGWGLAAICIGVGQGLAVVLHR
# B3: enzyme (Bacillus pumilus, UniProt A8FFI9); chain EARSIAWSVDEFFKNREGTFVIQEVKEKSPWVYNKKRAKERFAPQSTFKVANALIGLQTGAVRDEYDIKYWDGVKREIDNWNRDHTLGSGMRDSVVWYYQAMARDIGEERMNHWVKAIHYGNKDISGGIDQFWLSSTLRISPIEQVRFLKQLYEETLPFDLKNMRTVKRMMVQEEEKHATLYGKTGSGSDIGWYVGFIKHEHKTYILATNIKGTGIEAKDITYRILKKYHLMEASV
# B4: protein N123D (Rhodopseudomonas palustris, UniProt Q6N3R9); chain MSNVRVLATDLAFPEGPVVMPDGSVVLVEIRAQQLTRVWPDGRKEVVAKVPGGPNGAALGPDGKMYICNNGGFGWFPSRGTMMPGAPAPHEYIGGSIQRVDLQSGEVETLFDKCGEHPLKGPDDLVFDKHGGLWFTDLGKRRARDMDVGAAYYIKPGMTEITEQVFGTLPLNGIGLSPDEATMYAAETPTGRLWAFDLSGPGEVKPRDVIYRGEKGKPICGLGGYQMFDSLAVEASGNVCVATLVSGCISVIAPDGTLVEQVPTGDRVTTNIAFGGPDLKTAYITLSGKGELIAMDWSRPGLPLNFLNK
# B5: enzyme N249W (Thermobifida fusca, UniProt Q47RK4); chain MTDVYILDAVRTPFGRYGGALSGIRPDDLAAHVLRALAERSPGLDPAAVDDVFFGDANGAGEDNRNVARMAALLAGWPTSVPGVTLNRLCGSGMESVIAANRAIAVGDASLAVAGGVESMSRAPWVLPKPAQGFPTGHETLYSTTLGWRMVNPAMPEQWTVSLGESTEQVAATYGISRAEQDAFALRSHERAARAWAEGVFDAEITQIPGAELERDESIRETSAEKLAALKPAFRPDGTITAGNASPLWDGAAALLIGDAAAAERVGREPLARIVSRGVAAVDPDVFGIGPVQAAEIALRRAGIGWDDLSVVELNEAFAAQSLACLKLWPDLDPEIVNPNGGAIAIGHPLGASGARIVGTLAHELHRRGGGWGLAAICIGVGQGLAVVLHR
# Chain of UniProt F4I907 (whole entry, looked up): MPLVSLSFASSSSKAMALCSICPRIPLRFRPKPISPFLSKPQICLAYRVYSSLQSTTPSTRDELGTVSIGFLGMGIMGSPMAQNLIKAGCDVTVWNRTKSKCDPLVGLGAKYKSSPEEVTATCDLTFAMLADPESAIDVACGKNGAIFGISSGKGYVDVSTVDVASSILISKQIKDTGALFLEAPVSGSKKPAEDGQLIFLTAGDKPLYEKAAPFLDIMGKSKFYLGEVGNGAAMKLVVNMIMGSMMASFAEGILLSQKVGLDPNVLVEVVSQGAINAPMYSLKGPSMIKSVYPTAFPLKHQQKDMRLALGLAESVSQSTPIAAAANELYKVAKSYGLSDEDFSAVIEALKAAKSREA
# Chain of UniProt Q9F1Y6 (whole entry, looked up): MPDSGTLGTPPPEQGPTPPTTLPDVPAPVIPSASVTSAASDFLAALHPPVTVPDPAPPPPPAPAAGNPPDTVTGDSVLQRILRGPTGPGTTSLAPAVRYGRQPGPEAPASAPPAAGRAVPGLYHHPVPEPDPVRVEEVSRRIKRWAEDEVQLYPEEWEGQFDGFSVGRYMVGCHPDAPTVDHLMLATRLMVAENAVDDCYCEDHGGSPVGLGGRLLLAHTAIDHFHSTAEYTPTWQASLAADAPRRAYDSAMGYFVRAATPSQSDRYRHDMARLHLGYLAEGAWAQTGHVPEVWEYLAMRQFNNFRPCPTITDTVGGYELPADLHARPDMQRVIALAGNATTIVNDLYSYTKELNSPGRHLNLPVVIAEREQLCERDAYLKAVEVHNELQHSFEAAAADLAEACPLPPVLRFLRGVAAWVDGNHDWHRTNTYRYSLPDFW
# Chain of UniProt Q9HX72 (whole entry, looked up): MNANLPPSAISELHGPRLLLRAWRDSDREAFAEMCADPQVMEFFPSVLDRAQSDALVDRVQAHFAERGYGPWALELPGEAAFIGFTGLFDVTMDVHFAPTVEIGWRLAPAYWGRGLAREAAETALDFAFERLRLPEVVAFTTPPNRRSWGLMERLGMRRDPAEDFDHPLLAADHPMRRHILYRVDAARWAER
# Chain of UniProt Q6XEC0 (whole entry, looked up): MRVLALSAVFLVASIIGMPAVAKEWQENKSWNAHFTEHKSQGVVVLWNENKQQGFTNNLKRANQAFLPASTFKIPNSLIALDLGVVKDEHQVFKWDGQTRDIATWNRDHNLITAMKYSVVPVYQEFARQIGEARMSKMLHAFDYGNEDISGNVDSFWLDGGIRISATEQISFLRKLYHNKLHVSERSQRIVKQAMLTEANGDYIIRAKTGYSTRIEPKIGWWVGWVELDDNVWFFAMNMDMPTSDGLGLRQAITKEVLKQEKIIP
# Chain of UniProt Q8ZMX2 (whole entry, looked up): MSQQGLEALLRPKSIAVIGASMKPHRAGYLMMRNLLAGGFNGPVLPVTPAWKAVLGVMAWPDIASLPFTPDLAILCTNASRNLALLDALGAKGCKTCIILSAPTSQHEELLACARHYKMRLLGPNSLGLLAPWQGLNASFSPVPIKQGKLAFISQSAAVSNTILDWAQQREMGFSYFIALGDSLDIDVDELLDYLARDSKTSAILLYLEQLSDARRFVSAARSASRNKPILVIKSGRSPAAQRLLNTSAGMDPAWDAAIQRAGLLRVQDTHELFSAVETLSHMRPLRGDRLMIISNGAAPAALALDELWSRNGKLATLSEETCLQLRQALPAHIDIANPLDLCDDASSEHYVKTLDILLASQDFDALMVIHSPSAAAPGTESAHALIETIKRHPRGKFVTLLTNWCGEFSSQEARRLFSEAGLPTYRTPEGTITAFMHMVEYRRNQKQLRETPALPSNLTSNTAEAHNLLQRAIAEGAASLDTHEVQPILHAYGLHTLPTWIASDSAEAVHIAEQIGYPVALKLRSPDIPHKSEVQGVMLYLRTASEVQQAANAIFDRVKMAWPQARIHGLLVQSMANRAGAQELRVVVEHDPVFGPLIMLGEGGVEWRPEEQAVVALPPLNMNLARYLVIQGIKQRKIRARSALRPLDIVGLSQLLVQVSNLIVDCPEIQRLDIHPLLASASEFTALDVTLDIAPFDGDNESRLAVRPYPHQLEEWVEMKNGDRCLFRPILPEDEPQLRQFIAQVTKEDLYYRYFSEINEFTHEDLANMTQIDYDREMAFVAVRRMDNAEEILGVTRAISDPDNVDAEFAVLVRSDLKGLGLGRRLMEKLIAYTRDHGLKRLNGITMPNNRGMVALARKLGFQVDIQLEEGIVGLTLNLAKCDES
# Chain of UniProt Q44467 (whole entry, looked up): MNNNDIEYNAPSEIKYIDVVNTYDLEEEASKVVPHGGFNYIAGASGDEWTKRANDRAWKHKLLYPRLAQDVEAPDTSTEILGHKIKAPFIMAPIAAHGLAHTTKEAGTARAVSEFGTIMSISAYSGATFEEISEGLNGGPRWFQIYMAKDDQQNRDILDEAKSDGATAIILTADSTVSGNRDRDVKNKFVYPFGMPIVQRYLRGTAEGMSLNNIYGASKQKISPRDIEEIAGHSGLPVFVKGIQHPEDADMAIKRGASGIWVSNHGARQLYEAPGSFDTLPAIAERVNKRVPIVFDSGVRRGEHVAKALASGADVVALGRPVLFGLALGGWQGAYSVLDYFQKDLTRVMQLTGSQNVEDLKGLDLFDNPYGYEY
Molecule,substrate,pH,temperature,setting,added,kcat/Km [M⁻¹ s⁻¹]
B1 (sbnA),N[C@@H](CCC(=O)O)C(=O)O,pH 8,25 °C,,OPS,1100 ± 78
"Lxyl-p1-1 (Lentinula edodes, UniProt G8GLN9)",[H][C@]12[C@H](OC(=O)c3ccccc3)[C@]3(O)C[C@H](OC(=O)[C@H](O)[C@@H](NC(=O)c4ccccc4)c4ccccc4)C(C)=C([C@@H](O)C(=O)[C@]1(C)[C@@H](O[C@@H]1OC[C@@H](O)[C@H](O)[C@H]1O)C[C@@]1([H])OC[C@@]21OC(C)=O)C3(C)C,,,,,3720 ± 60
B2 (enzyme E217L/L163H/N249W),CC(=O)SCCNC(=O)CCNC(=O)[C@H](O)C(C)(C)COP(=O)(O)OP(=O)(O)OC[C@H]1O[C@@H](n2cnc3c(N)ncnc32)[C@H](O)[C@@H]1OP(=O)(O)O,pH 7.4,37 °C,,,2
"enzyme (Streptomyces coelicolor, UniProt Q9F1Y6)",CC(C)=CCC/C(C)=C(\C)COP(=O)(O)OP(=O)(O)O,pH 6.7,30 °C,,,1110
B3 (enzyme),[H][C@]12SCC(COC(C)=O)=C(C(=O)O)N1C(=O)[C@H]2NC(=O)CCC[C@@H](N)C(=O)O,pH 7,,,,470 ± 40
"GLYR2 (Arabidopsis thaliana, UniProt F4I907)",NC(=O)C1=CN([C@@H]2O[C@H](COP(=O)(O)OP(=O)(O)OC[C@H]3O[C@@H](n4cnc5c(N)ncnc54)[C@H](OP(=O)(O)O)[C@@H]3O)[C@@H](O)[C@H]2O)C=CC1,pH 7.6,30 °C,cofactor varied,,8.55e+06 ± 960000
"OXA-48 (Klebsiella pneumoniae, UniProt Q6XEC0)",CO/N=C(\C(=O)N[C@@H]1C(=O)N2C(C(=O)O)=C(COC(C)=O)CS[C@H]12)c1csc(N)n1,pH 7.2,30 °C,,,4700
"dmhA (Campylobacter jejuni, UniProt Q5M6Q7)",Nc1nc2c(ncn2[C@@H]2O[C@H](COP(=O)(O)OP(=O)(O)O[C@H]3O[C@H]([C@H](O)CO)[C@@H](O)[C@H](O)[C@@H]3O)[C@@H](O)[C@H]2O)c(=O)[nH]1,pH 7.5,30 °C,,,27000 ± 3000
ω-transaminase A60V/E38Q/I154V/M128F/P9A/S87N/W58G (Pseudomonas jessenii),O=C1CCc2ccccc21,pH 8,56 °C,apparent,"isopropylamine 1 M, PLP 0.05 mM",800 ± 100
"pat (Salmonella enterica, UniProt Q8ZMX2)",CC(=O)SCCNC(=O)CCNC(=O)[C@H](O)C(C)(C)COP(=O)(O)OP(=O)(O)OC[C@H]1O[C@@H](n2cnc3c(N)ncnc32)[C@H](O)[C@@H]1OP(=O)(O)O,pH 7.5,37 °C,"apparent, sigmoidal fit",AcsC 400 µM,420000 ± 20000
"PA3944 (Pseudomonas aeruginosa, UniProt Q9HX72)",NCC[C@H](N)C(=O)O,pH 8,37 °C,,,39.1
MilB F17Y (Streptomyces rimofaciens),Nc1ccn([C@H]2C[C@H](O)[C@@H](COP(=O)(O)O)O2)c(=O)n1,pH 7.5,37 °C,,,100
"enzyme (Delftia acidovorans, UniProt A9BQX8)",NC(=O)C1=CN([C@@H]2O[C@H](COP(=O)(O)OP(=O)(O)OC[C@H]3O[C@@H](n4cnc5c(N)ncnc54)[C@H](O)[C@@H]3O)[C@@H](O)[C@H]2O)C=CC1,,,cofactor varied,,582000
"L-lactate oxidase (Aerococcus viridans, UniProt Q44467)",O=C1C(Cl)=CC(=Nc2ccc(O)cc2)C=C1Cl,pH 6.5,22 °C,"varied electron acceptor, apparent",L-lactic acid 200 mM,118000
B4 (protein N123D),O=C1CCc2ccccc2O1,pH 8,,"NaCl 150 mM, no saturation",CaCl2 1 mM,150
B5 (enzyme N249W),CC(=O)SCCNC(=O)CCNC(=O)[C@H](O)C(C)(C)COP(=O)(O)OP(=O)(O)OC[C@H]1O[C@@H](n2cnc3c(N)ncnc32)[C@H](O)[C@@H]1OP(=O)(O)O,pH 7.4,37 °C,,,4.5

# A few entries again:
Molecule,substrate,pH,temperature,setting,added,kcat/Km [M⁻¹ s⁻¹]
MilB F17Y (Streptomyces rimofaciens),Nc1ccn([C@H]2C[C@H](O)[C@@H](COP(=O)(O)O)O2)c(=O)n1,pH 7.5,37 °C,,,100
B1 (sbnA),N[C@@H](CCC(=O)O)C(=O)O,pH 8,25 °C,,OPS,1100 ± 78
